# Assay results collected from several papers.
# Compare with care: the assays were run in different laboratories. ± gives the spread as reported.
Structure (SMILES),test,system,setting,how to read,endpoint,result
O=C([O-])CNC(=O)CN1CCN(CC(=O)NCC(=O)[O-])CCN(CC(=O)NCC(=O)[O-])CCN(CC(=O)NCC(=O)[O-])CC1.[177Lu+3],,"Sprague-Dawley rat, lung","intravenous (tail vein), dose not given, 2 h",,tissue uptake,0.021 ± 0.002 % injected dose/g
CSCC[C@H](N)C(=O)N[C@@H](C)C(=O)N[C@@H](Cc1c[nH]c2ccccc12)C(=O)N[C@@H](Cc1c[nH]cn1)C(=O)N[C@@H](CC(=O)O)C(=O)N[C@@H](CC(=O)O)C(=O)N[C@@H](CCC(=O)O)C(=O)N[C@@H](CCC(=O)O)C(=O)N[C@@H](Cc1ccccc1)C(=O)N[C@@H](C)C(=O)N[C@@H](CCCNC(=N)N)C(=O)N[C@@H](CCCNC(=N)N)C(=O)N[C@@H](CCCNC(=N)N)C(=O)N[C@@H](CCCNC(=N)N)C(=O)NCCCCCC(=O)NCCCCC(NC(=O)CCCCCNC(=O)[C@H](CCCNC(=N)N)NC(=O)[C@H](CCCNC(=N)N)NC(=O)[C@H](CCCNC(=N)N)NC(=O)[C@H](CCCNC(=N)N)NC(=O)[C@H](C)NC(=O)[C@H](Cc1ccccc1)NC(=O)[C@H](CCC(=O)O)NC(=O)[C@H](CCC(=O)O)NC(=O)[C@H](CC(=O)O)NC(=O)[C@H](CC(=O)O)NC(=O)[C@H](Cc1c[nH]cn1)NC(=O)[C@H](Cc1c[nH]c2ccccc12)NC(=O)[C@H](C)NC(=O)[C@@H](N)CCSC)C(=O)NCCCCC(NC(=O)C(CCCCNC(=O)CCCCCNC(=O)[C@H](CCCNC(=N)N)NC(=O)[C@H](CCCNC(=N)N)NC(=O)[C@H](CCCNC(=N)N)NC(=O)[C@H](CCCNC(=N)N)NC(=O)[C@H](C)NC(=O)[C@H](Cc1ccccc1)NC(=O)[C@H](CCC(=O)O)NC(=O)[C@H](CCC(=O)O)NC(=O)[C@H](CC(=O)O)NC(=O)[C@H](CC(=O)O)NC(=O)[C@H](Cc1c[nH]cn1)NC(=O)[C@H](Cc1c[nH]c2ccccc12)NC(=O)[C@H](C)NC(=O)[C@@H](N)CCSC)NC(=O)CCCCCNC(=O)[C@H](CCCNC(=N)N)NC(=O)[C@H](CCCNC(=N)N)NC(=O)[C@H](CCCNC(=N)N)NC(=O)[C@H](CCCNC(=N)N)NC(=O)[C@H](C)NC(=O)[C@H](Cc1ccccc1)NC(=O)[C@H](CCC(=O)O)NC(=O)[C@H](CCC(=O)O)NC(=O)[C@H](CC(=O)O)NC(=O)[C@H](CC(=O)O)NC(=O)[C@H](Cc1c[nH]cn1)NC(=O)[C@H](Cc1c[nH]c2ccccc12)NC(=O)[C@H](C)NC(=O)[C@@H](N)CCSC)C(N)=O (stereo partly drawn),,"C57BL/6 mouse female, brain","dose not given, 3 h",relative to: total,mean tissue distribution,0.52%
O=C1NC2(CC2)COc2ncc(F)cc2[C@H]2COCCN2c2ccn3ncc1c3n2,,"Sprague-Dawley rats, male, blood","oral, 2.5 mg/kg/day, end of recovery, 4-week subacute toxicity",,eosinophil percentage,1.02 ± 0.46%
CCC1CC(c2ccc(C(=O)O)cc2C)=NN1c1ccc(C#N)c(Cl)c1 (stereo not drawn),,"mouse, liver microsomes",1 µM,,intrinsic clearance,< 5 µL/min/mg
CC[C@H](C)[C@H](NC(=O)[C@H](CCCCN)NC(=O)CNC(=O)[C@H](CC(C)C)NC(=O)[C@H](Cc1ccccc1)NC(=O)[C@H](CCCCN)NC(=O)[C@H](CO)NC(=O)[C@H](Cc1ccccc1)NC(=O)[C@H](Cc1c[nH]c2ccccc12)NC(=O)[C@H](CCC(N)=O)NC(=O)[C@@H](NC(=O)[C@H](Cc1ccccc1)NC(=O)CCCCCNC(=O)CN1CCN(CC(=O)O)CCN(CC(=O)O)CCN(CC(=O)O)CC1)C(C)C)C(=O)N[C@@H](CCC(=O)O)C(=O)N1CCC[C@H]1C(=O)N[C@@H](CC(=O)O)C(=O)N[C@H](C(=O)N[C@@H](CO)C(=O)N[C@@H](CCC(N)=O)C(=O)N[C@H](C(=O)N[C@@H](CCC(N)=O)C(=O)N[C@@H](CC(=O)O)C(=O)N1CCC[C@H]1C(=O)N[C@@H](CC(N)=O)C(=O)N[C@@H](CC(=O)O)C(=O)N[C@@H](CCC(N)=O)C(=O)N[C@@H](Cc1ccc(O)cc1)C(=O)N[C@@H](CCC(=O)O)C(=O)N1CCC[C@H]1C(=O)N[C@@H](Cc1ccccc1)C(=O)O)C(C)C)C(C)C [copper-64 labelled],dynamic PET,"mouse both sexes, CT26 tumour, checkpoint inhibitor-treated, tumour","intravenous, 100 µCi/mouse, 450 s",,SUVmean,2.95 SUV
CN1Cc2cc(Cl)ccc2-n2c(nnc2C2CCN(c3cccc([18F])n3)CC2)C1,PET two-tissue compartment model,"rhesus monkey, cerebellum","intravenous, dose not given, 70 min scan, baseline scan",,total volume of distribution,0.85 ± 0.32 mL/cm3
CC(=O)CCC1C(=O)NC(C(C)C)C(=O)NC(Cc2cc(O)cc(F)c2)C(=O)N2CCCC(N2)C(=O)OC(C(C)=CC=CC(=O)N2CCCCO2)CC=CC=CC(O)C(C)C1O (stereo not drawn),,"male Sprague-Dawley rat, lung","oral, 5 mg/kg",,AUC,2740 ng·h/mL
CC(C)Oc1c(NC(=O)c2ccc(NC(=O)[C@H](CC(N)=O)NC(=O)c3ccc(/N=N/c4ccccc4)cc3)cc2)ccc(C(=O)N/N=C/c2ccc(C(=O)O)cc2)c1O,absorbance,DMSO,"40 °C, PSS to ground state relaxation",,thermal half-life,8.1 h
CC(CCC(=O)NCC(=O)O)C1CCC2C3C(O)CC4CC(OC5OC(C(=O)O)C(O)C(O)C5O)CCC4(C)C3CCC12C (stereo not drawn),,human men,"dose not given, SLCO1B1 *5/*14",,plasma concentration,118 ng/mL
COc1cnc2cccc(N3CCc4c(cc(Cn5ccnc5)cc4-c4cn(C)nc4C(F)(F)F)C3=O)c2c1,,CD-1 mice,"intraperitoneal, 100 mg/kg once daily, day 1",,body weight,27.8 ± 0.5 g
COc1ccc(C([O-])=CC(=O)c2ccc(C(C)(C)C)cc2)cc1.[Cl-].[Ru+2].c1ccc(-c2cccc(-c3ccccn3)n2)nc1,,zebrafish larvae,"10 µM, 48 h, dark",relative to: normal,viability,100%
CCCCCCCCCCCCCCCC(=O)N[C@@H](CCC(=O)NCCOCCOCCC(=O)NCCOCCOCCC(=O)NCCCC[C@H](NC(=O)[C@H](CC(=O)O)NC(=O)[C@H](CC(C)C)NC(=O)[C@H](Cc1ccc(O)cc1)NC(=O)[C@H](CCCCN)NC(=O)[C@H](CO)NC(=O)[C@H](Cc1ccc(O)cc1)NC(=O)[C@H](CC(=O)O)NC(=O)[C@H](CO)NC(=O)[C@@H](NC(=O)[C@H](Cc1ccccc1)NC(=O)[C@@H](NC(=O)CNC(=O)[C@H](CCC(N)=O)NC(=O)[C@@H](CO)NC(=O)[C@@H](N)Cc1c[nH]cn1)[C@@H](C)O)[C@@H](C)O)C(=O)N[C@@H](CCCNC(=N)N)C(=O)N[C@@H](CCCNC(=N)N)C(=O)N[C@@H](C)C(=O)N[C@@H](CCC(N)=O)C(=O)N[C@@H](CC(=O)O)C(=O)N[C@@H](Cc1ccccc1)C(=O)N[C@H](C(=O)N[C@@H](CCC(N)=O)C(=O)N[C@@H](Cc1c[nH]c2ccccc12)C(=O)N[C@@H](CC(C)C)C(=O)N[C@@H](CC(C)C)C(=O)N[C@@H](CC(N)=O)C(=O)N[C@H](C(=O)NCC(=O)NCC(=O)N1CCC[C@H]1C(=O)N[C@@H](CO)C(=O)N[C@@H](CO)C(=O)NCC(=O)N[C@@H](C)C(=O)N1CCC[C@H]1C(=O)N1CCC[C@H]1C(=O)N1CCC[C@H]1C(=O)N[C@@H](CO)C(N)=O)[C@@H](C)O)C(C)C)C(=O)O,,"male rhesus monkey, plasma","subcutaneous, 60 µg/kg, day 28, median",,Tmax,1 h
